Measured values collected from several papers.
Every numbered part comes from another study and shows a few of its results, in no order.

Block 1 — technique: two-hybrid; reference: out of 4 tests; direction: higher = firmer interaction
Partner: ARF16 570-670 (Arabidopsis thaliana, UniProt Q93YR9)
B1: ARF11 500-622 (Arabidopsis thaliana, UniProt Q9ZPY6); chain SPKEQKQQTSTRSRIKVQMQGTAVGRAVDLTLLRSYDELIKELEKMFEIEGELSPKDKWAIVFTDDEGDRMLVGDDPWNEFCKMAKKLFIYPSDEVKKMRSKSLLGDKGTIVNLESDQRTVHV
B2: IAA18 (Arabidopsis thaliana, UniProt O24408); chain MEGYSRNGEISPKLLDLMIPQERRNWFHDEKNSVFKTEEKKLELKLGPPGEEDDDESMIRHMKKEPKDKSILSLAGKYFSPSSTKTTSHKRTAPGPVVGWPPVRSFRKNLASGSSSKLGNDSTTSNGVTLKNQKCDAAAKTTEPKRQGGMFVKINMYGVPIGRKVDLSAHNSYEQLSFTVDKLFRGLLAAQRDFPSSIEDEKPITGLLDGNGEYTLTYEDNEGDKMLVGDVPWQMFVSSVKRLRVIKTSEISSALTYGNGKQEKMRR
B3: ARF14 497-605 (Arabidopsis thaliana, UniProt Q9LQE8); chain SPTEIQSKQFSSTRTCTKVQMQGVTIGRAVDLSVLNGYDQLILELEKLFDLKGQLQARNQWEIAFTNNEEDKMLVGEDPWPEFCNMVKKIFIYSKEEVKNLKSRKSLSS
B4: IAA16 (Arabidopsis thaliana, UniProt O24407); chain MINFEATELRLGLPGGNHGGEMAGKNNGKRGFSETVDLKLNLSSTAMDSVSKVDLENMKEKVVKPPAKAQVVGWPPVRSFRKNVMSGQKPTTGDATEGNDKTSGSSGATSSASACATVAYVKVSMDGAPYLRKIDLKLYKTYQDLSNALSKMFSSFTIGNYGPQGMKDFMNESKLIDLLNGSDYVPTYEDKDGDWMLVGDVPWEMFVDSCKRIRIMKGSEAIGLAPRALEKCKNRS
Residues (chain): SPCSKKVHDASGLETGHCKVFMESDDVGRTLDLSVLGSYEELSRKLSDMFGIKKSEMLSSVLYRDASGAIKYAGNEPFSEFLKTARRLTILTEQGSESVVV
Molecule | positive tests
B1 (ARF11 500-622) | 0
B2 (IAA18) | 0
B3 (ARF14 497-605) | 0
B4 (IAA16) | 0

Block 2 — technique: RNA Bind-n-Seq; molecule type: RNA; matrix: in vitro; concentration: 365 nM; reference: no-protein control; direction: higher = stronger binding
Target: RNA binding protein fox-1 homolog 2, RRM domain, GST-SBP tag (RBFOX2, Homo sapiens, UniProt O43251-10, residues 100-194)
Setting: natural RNA segment, single round, ends assumed
Constant ends, left off below: GGGAGUUCUACAGUCCGACGAUC … UGGAAUUCUCGGGUGCCAA
Target sequence (chain): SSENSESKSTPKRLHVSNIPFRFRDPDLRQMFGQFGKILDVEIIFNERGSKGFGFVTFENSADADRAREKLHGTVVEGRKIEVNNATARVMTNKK
Sequence | RBNS enrichment (R)
UUGUCCUCCAGACCAGGCAGCAACAUGGUAUUUAUUUUAAUCAUUAAAGUACAACAUGAGUAGUACAGGUGUAAUUAUGGAUCAUUUUCUAGCAUAGUAUUUCAUACAAC | 0.319
GCCACUGUCUCCUCUCCAUCCCGCCCAGCCAUGUGACACUGGCUCCCGGUAGACGGGCACCCCGAGAUGUACCAACCUUUUCAUGUAUUCUGCCAAAAGCAUUGUUUUCC | 0.335
GUGGAUUUGAAGAGGGGUUGAAAGAAAGGAAGCAUUCCUCUUGCUUUAAACUAGUAUGUGCAUCAGAUGCUUACAGCAGAAGUUUGCACAGGUAAGAGAAGCUGCCAGUG | 0.431
CCCAAUUAUCUUCCAAGAUAGGAGAUAUUUCCCAUCCCCUUCCUUUGUAAAUAUCUCAUCUCCCACUGGAGAGCCCAGGAGCCUAUUCCUGGCAUGGAUGUUCUGUCCAC | 0.38
AAUGGUAUAUCCACUGACAGCUUGCACCAUGCACCUGGAAAAGCCACAGACACUCAACGCCAGCCUGUAAAAGCAACCGAGAAGUAGGCUGUACCCUGCAAUGCCAUAGG | 1.56
AAAACAAAACAAAAAAAACACUUAAUAUUUCAGACUGUUACAGGAAACACCCUUUAGUCUGUCAGUUGAAUUCAGAGCACUGAAAGGUGUUAAAUUGGGGUAUGUGGUUU | 0.819
CUCCUCAGUCGCAGGGGUGGGAUGUGAGUCAUGCGGAUUAUCCACUCGCCACAGUUAUCAGCUGCCAUUGCUCCCUGUCUGUUUCCCCACUCUCUUAUUUGUGCAUUCGG | 0.725
GCGUGGGCCAGGCCGUAGGGGUGGCCGGGCCAGGGGUGGGCAAGGCCCUCGACCUAACAUCUGUGGCAUCUGCGGGAAGAGCUUUGGACGAGGCUCGACCCUGAUCCAGC | 0.751

Block 3 — target: UBE2H UBC core domain (UniProt P62256); technique: yeast two-hybrid; matrix: yeast; setting: mostly zero background; reference: not given; direction: higher = stronger interaction
Sequence of UniProt P62256 (whole entry, looked up): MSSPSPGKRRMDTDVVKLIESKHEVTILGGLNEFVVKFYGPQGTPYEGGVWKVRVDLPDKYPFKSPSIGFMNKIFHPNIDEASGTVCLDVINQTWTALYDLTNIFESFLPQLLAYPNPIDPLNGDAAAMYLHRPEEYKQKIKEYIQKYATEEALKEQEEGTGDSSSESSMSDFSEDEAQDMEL
B5: SHPRH RING domain (UniProt Q149N8); chain KTSGGVNPEPCPICARQLGKQWAVLTCGHCFCNECISIIIEQYSVGSHRSSIKCAICRQTTSHKEISY
B6: RNF32 RING domain (UniProt Q9H0A6); chain VQALRRETHECSICLAPLSAAGGQRVGAGRRSREMALLSCSHVFHHACLLALEEFSVGDRPPFHACPLCRSCYQKKILEC
B7: RNF10 RING domain (UniProt Q8N5U6); chain VRICSHEVPSCPICLYPPTAAKITRCGHIFCWACILHYLSLSEKTWSKCPICYSSVHKKDLKS
B8: ARIH1 RING domain (UniProt Q9Y4X5); chain NTRSSAQDMPCQICYLNYPNSYFTGLECGHKFCMQCWSEYLTTKIMEEGMGQTISCPAHGCDILVDDNTVM
B9: RMND5B RING domain (UniProt Q96G75); chain MKCWYHSVFACPILRQQTSDSNPPIKLICGHVISRDALNKLINGGKLKCPYCPMEQNPADGK
B10: RNF11 RING domain (UniProt Q9Y3C5); chain RDGSEKKIRECVICMMDFVYGDPIRFLPCMHIYHLDCIDDWLMRSFTCPSCMEPVDAALLSS
B11: TRIM34 RING domain (UniProt Q9BYJ4); chain ILLNVQEEVTCPICLELLTEPLSLDCGHSLCRACITVSNKEAVTSMGGKSSCPVCGISYSFEHLQA
B12: RNF130 RING domain (UniProt Q86XS8); chain DKETDPDFDHCAVCIESYKQNDVVRILPCKHVFHKSCVDPWLSEHCTCPMCKLNILKALGIV
B13: MARCHF2 RING domain (UniProt Q9P0N8); chain RLLSTVIRALDTPSDGPFCRICHEGANGECLLSPCGCTGTLGAVHKSCLEKWLSSSNTSYCELCHTEFAVEKRPRPLTEWL
B14: TRIM74 RING domain (UniProt Q86UV6); chain SLLELEDWLQCPICLEVFKESLMLQCGHSYCKGCLVSLSYHLDTKVRCPMCWQVVDGSSSLP
Molecule | lacZ reporter activity
B5 (SHPRH RING domain) | 0
B6 (RNF32 RING domain) | 0
B7 (RNF10 RING domain) | 0
AAQLLEEKLTCAICLGLYQDPVTLPCGHNFCGACIRDWWDRCGKACPECREPFPDGAELR (TRIM65 RING domain (UniProt Q6PJ69)) | 0
VPADASPDSKCPICLDRFDNVSYLDRCLHKFCFRCVQEWSKNKAECPLCKQPFDSIFHSV (TOPORS RING domain (UniProt Q9NS56)) | 0
PLRRLQEEKLCKICMDRHIAVVFIPCGHLVTCKQCAEAVDRCPMCSAVIDFKQRVF (BIRC8 RING domain (UniProt Q96P09)) | 0
B8 (ARIH1 RING domain) | 0
B9 (RMND5B RING domain) | 0
B10 (RNF11 RING domain) | 0
B11 (TRIM34 RING domain) | 0
B12 (RNF130 RING domain) | 0
B13 (MARCHF2 RING domain) | 0
B14 (TRIM74 RING domain) | 0

Block 4 — technique: protein-binding microarray; molecule type: double-stranded DNA, one strand shown; matrix: in vitro; concentration: not given; direction: higher = stronger binding
Target: Transcription factor SOX-2, HMG box (SOX2, Homo sapiens, UniProt P48431, residues 19-118)
Sequence of UniProt P48431 (19-118, looked up): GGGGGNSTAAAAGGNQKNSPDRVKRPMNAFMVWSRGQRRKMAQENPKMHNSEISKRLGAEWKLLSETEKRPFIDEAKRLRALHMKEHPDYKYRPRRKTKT
Setting: k-mer, scored over probes, only values ≥0.25
Sequence | E-score
TGTGAAA | 0.332
ATAGATA | 0.288
TATTGAA | 0.399
AATACAT | 0.337
GATAATC | 0.321
TACACAA | 0.251
ATCAATG | 0.365
ATAATTA | 0.419
GTAATAA | 0.333
CGAACAA | 0.285
GTATTGA | 0.362
AAATGAA | 0.308
CAATCGA | 0.287
ATTGACA | 0.343
ATTATCA | 0.325
GATTCAA | 0.31
AACAAAT | 0.367
ACAATTA | 0.461
ATAGTCC | 0.312
ACTATTG | 0.301
AATAGCT | 0.28
ACATAAT | 0.364
TCAATCA | 0.261
ACAATCC | 0.277
